Experimental data pooled from the literature.
Compare with care: the assays were run in different laboratories. Numbers after ± are the reported error.
Method: steady-state kinetics
B1: CstB (Staphylococcus aureus, UniProt G5ELA4); chain MFFKQFYDNHLSQASYLVGCQRTGEAIIIDPVRDLSKYIEVADSEGLTITQATETHIHADFASGIRDVAKRLNANIYVSGEGEDALGYKNMPSKTQFVKHGDIIQVGNVKLEVLHTPGHTPESISFLLTDLGGGSSVPMGLFSGDFIFVGDIGRPDLLEKSVQIKGSTEISAKQMYESVQNIKNLPDYVQIWPGHGAGSPCGKALGAIPISTIGYEKINNWAFNEIDETKFIESLTSNQPAPPHHFAQMKQVNQFGMNLYQSYDVYPSLDNKRVAFDLRSKEAFHGGHTKGTINIPYNKNFINQIGWYLDFEKDIDLIGDKSTVEKAKHTLQLIGFDKVAGYRLPKSGISTQSVHSADMTGKEEHVLDVRNDEEWNNGHLDQAVNIPHGKLLNENIPFNKEDKIYVHCQSGVRSSIAVGILESKGFENVVNIREGYQDFPESLK
B2: ERAP1 (Homo sapiens, UniProt Q9NZ08); chain MVFLPLKWSLATMSFLLSSLLALLTVSTPSWCQSTEASPKRSDGTPFPWNKIRLPEYVIPVHYDLLIHANLTTLTFWGTTKVEITASQPTSTIILHSHHLQISRATLRKGAGERLSEEPLQVLEHPRQEQIALLAPEPLLVGLPYTVVIHYAGNLSETFHGFYKSTYRTKEGELRILASTQFEPTAARMAFPCFDEPAFKASFSIKIRREPRHLAISNMPLVKSVTVAEGLIEDHFDVTVKMSTYLVAFIISDFESVSKITKSGVKVSVYAVPDKINQADYALDAAVTLLEFYEDYFSIPYPLPKQDLAAIPDFQSGAMENWGLTTYRESALLFDAEKSSASSKLGITMTVAHELAHQWFGNLVTMEWWNDLWLNEGFAKFMEFVSVSVTHPELKVGDYFFGKCFDAMEVDALNSSHPVSTPVENPAQIREMFDDVSYDKGACILNMLREYLSADAFKSGIVQYLQKHSYKNTKNEDLWDSMASICPTDGVKGMDGFCSRSQHSSSSSHWHQEGVDVKTMMNTWTLQKGFPLITITVRGRNVHMKQEHYMKGSDGAPDTGYLWHVPLTFITSKSDMVHRFLLKTKTDVLILPEEVEWIKFNVGMNGYYIVHYEDDGWDSLTGLLKGTHTAVSSNDRASLINNAFQLVSIGKLSIEKALDLSLYLKHETEIMPVFQGLNELIPMYKLMEKRDMNEVETQFKAFLIRLLRDLIDKQTWTDEGSVSERMLRSQLLLLACVHNYQPCVQRAEGYFRKWKESNGNLSLPVDVTLAVFAVGAQSTEGWDFLYSKYQFSLSSTEKSQIEFALCRTQNKEKLQWLLDESFKGDKIKTQEFPQILTLIGRNPVGYPLAWQFLRKNWNKLVQKFELGSSSIAHMVMGTTNQFSTRTRLEEVKGFFSSLKENGSQLRCVQQTIETIEENIGWMDKNFDKIRVWLQSEKLEHDPEADATG
B3: sacB Y247F (Priestia megaterium, UniProt D5DC07); chain KGNDSKDFNNSYGISHITRDNMVKIPQQQNSDQFKVPAFDESTIKNIASAKGKNASGNTIDLDVWDSWPLQNADGTVATYHGYQIVFALAGDPKDSNDTSVYLFYKKAGDKSIDSWKNAGRVFKDSDKFVPNDPHLKNQTQEWSGSGTLTKDGKVRLFYTDYSGKQYGKQTLTTAQVNMSQPNDNTLKVDGVEDYKSIFDGDGKIYQTVQQFIDEGGFDTGDNHTLRDPHYIEDNGHKYLVFEANTGTEDGYQGEDSLYNRAYYGGNNPFFQSEKKKLLEGSNKEKASLANGALGIIELNDDYTLKKVMKPLITSNTVTDEIERANIFKKDGKWYLFTDSRGSKMTIDGIGQDDVYMLGYVSNTLTGKYKPLNDTGLVLHMDLDPNDKTFTYSHFAVPQTKGDNVVITSYMTNRGFYEDNHSTFAPSFLVNIDGSKTSVVKDRVLEQGQLTVDED
B4: enzyme K299V (Mus musculus, UniProt P08680); chain DRKSKIVQRAAPEVQEDVKTFKTDLLSTMDSTTRSHSFPSFQEPEQTEGAVPHLIQNNMTGSQAFGYDQFFRDKIMEKKQDHTYRVFKTVNRWANAYPFAQHFSEASMASKDVSVWCSNDYLGISRHPRVLQAIEETLKNHGAGAGGTRNISGTSKFHVELEQELAELHQKDSALLFSSCFVANDSTLFTLAKLLPGCEIYSDAGNHASMIQGIRNSGAAVFVFRHNDPGHLKKLLEKSDPKTPKIVAFETVHSMDGAICPLEELCDVAHQYGALTFVDEVHAVGLYGARGAGIGERDGIMHKLDIISGTLGKAFGCVGGYIASTRDLVDMVRSYAAGFIFTTSLPPMVLSGALESVRLLKGEEGQALRRAHQRNVKHMRQLLMDRGFPVIPCPSHIIPIRVGNAALNSKICDLLLSKHSIYVQAINYPTVPRGEELLRLAPSPHHSPQMMENFVEKLLLAWTEVGLPLQDVSVAACNFCHRPVHFELMSEWERSYFGNMGPQYVTTYA
B5: sacB S173G (Priestia megaterium, UniProt D5DC07); chain KGNDSKDFNNSYGISHITRDNMVKIPQQQNSDQFKVPAFDESTIKNIASAKGKNASGNTIDLDVWDSWPLQNADGTVATYHGYQIVFALAGDPKDSNDTSVYLFYKKAGDKSIDSWKNAGRVFKDSDKFVPNDPHLKNQTQEWGGSGTLTKDGKVRLFYTDYSGKQYGKQTLTTAQVNMSQPNDNTLKVDGVEDYKSIFDGDGKIYQTVQQFIDEGGYDTGDNHTLRDPHYIEDNGHKYLVFEANTGTEDGYQGEDSLYNRAYYGGNNPFFQSEKKKLLEGSNKEKASLANGALGIIELNDDYTLKKVMKPLITSNTVTDEIERANIFKKDGKWYLFTDSRGSKMTIDGIGQDDVYMLGYVSNTLTGKYKPLNDTGLVLHMDLDPNDKTFTYSHFAVPQTKGDNVVITSYMTNRGFYEDNHSTFAPSFLVNIDGSKTSVVKDRVLEQGQLTVDED
Sequence of UniProt Q9UBT6 (whole entry, looked up): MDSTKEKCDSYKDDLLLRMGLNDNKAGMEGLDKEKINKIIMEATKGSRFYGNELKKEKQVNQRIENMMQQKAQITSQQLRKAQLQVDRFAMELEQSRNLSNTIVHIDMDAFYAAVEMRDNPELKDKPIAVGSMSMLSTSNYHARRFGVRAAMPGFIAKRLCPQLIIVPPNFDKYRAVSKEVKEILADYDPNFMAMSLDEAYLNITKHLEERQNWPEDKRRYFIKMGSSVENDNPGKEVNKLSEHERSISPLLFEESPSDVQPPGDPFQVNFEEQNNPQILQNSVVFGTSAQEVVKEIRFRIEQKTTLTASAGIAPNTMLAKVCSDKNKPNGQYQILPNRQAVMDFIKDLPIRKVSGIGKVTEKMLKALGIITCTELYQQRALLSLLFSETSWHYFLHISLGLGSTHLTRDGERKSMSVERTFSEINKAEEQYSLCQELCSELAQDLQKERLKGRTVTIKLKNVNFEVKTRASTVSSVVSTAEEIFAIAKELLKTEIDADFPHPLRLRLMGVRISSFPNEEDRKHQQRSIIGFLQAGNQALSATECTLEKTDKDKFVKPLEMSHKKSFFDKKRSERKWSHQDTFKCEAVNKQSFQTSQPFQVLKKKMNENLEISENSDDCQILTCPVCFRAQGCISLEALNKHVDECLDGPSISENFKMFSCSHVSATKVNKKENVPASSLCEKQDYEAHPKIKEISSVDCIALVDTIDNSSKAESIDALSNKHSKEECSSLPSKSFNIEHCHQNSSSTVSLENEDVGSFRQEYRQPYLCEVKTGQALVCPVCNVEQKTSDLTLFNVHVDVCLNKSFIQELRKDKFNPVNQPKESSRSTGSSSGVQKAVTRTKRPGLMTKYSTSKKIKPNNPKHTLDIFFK

Substance | substrate | conditions | kcat/Km [M⁻¹ s⁻¹]
enzyme (UniProt A0A7J5BGR1) | COc1cc(CN)ccc1O | pH 8, 25 °C | 50
B1 (CstB) | CC(C)(COP(=O)(O)OP(=O)(O)OC[C@H]1O[C@@H](n2cnc3c(N)ncnc32)[C@H](O)[C@@H]1OP(=O)(O)O)[C@@H](O)C(=O)NCCC(=O)NCCSS | pH 6, 25 °C, NaBr 100 mM, air-saturated, added: Fe(II), O2 | 17500 ± 5100
B2 (ERAP1) | CC(C)C[C@H](N)C(=O)N[C@@H](CO)C(=O)N[C@@H](CCCNC(=N)N)C(=O)N[C@@H](Cc1c[nH]cn1)C(=O)N[C@@H](Cc1c[nH]cn1)C(=O)N[C@@H](C)C(=O)N[C@@H](Cc1ccccc1)C(=O)N[C@@H](CO)C(=O)N[C@@H](Cc1ccccc1)C(=O)N[C@@H](CCCNC(=N)N)C(=O)O | 25 °C | 230000 ± 80000
enzyme (Comamonas testosteroni, UniProt B7WQT1) | O=C(O)c1ccc(C(=O)O)cc1 | pH 8, 25 °C, apparent | 22000 ± 4000
B3 (sacB Y247F) | OC[C@H]1O[C@@](CO)(O[C@H]2O[C@H](CO)[C@@H](O)[C@H](O)[C@H]2O)[C@@H](O)[C@@H]1O | pH 6.9 | 11600
POLK (Homo sapiens, UniProt Q9UBT6) | Nc1ccn([C@H]2C[C@H](O)[C@@H](COP(=O)(O)OP(=O)(O)OP(=O)(O)O)O2)c(=O)n1 | pH 7.5, 23 °C, MgCl2 5 mM, added: G template | 19000
enzyme (Phocaeicola vulgatus, UniProt A6KWY5) | O=C(O)[C@@H](O)[C@H](O)[C@H](O)C(=O)CO | pH 7, 30 °C | 160000 ± 20000
B4 (enzyme K299V) | CC(C)(COP(=O)(O)OP(=O)(O)OC[C@H]1O[C@@H](n2cnc3c(N)ncnc32)[C@H](O)[C@@H]1OP(=O)(O)O)[C@@H](O)C(=O)NCCC(=O)NCCSC(=O)CCC(=O)O | pH 7.5, 37 °C | 7000 ± 700
B5 (sacB S173G) | OC[C@H]1O[C@@](CO)(O[C@H]2O[C@H](CO)[C@@H](O)[C@H](O)[C@H]2O)[C@@H](O)[C@@H]1O | pH 6.6 | 310

Repeated from above:
Substance | substrate | conditions | kcat/Km [M⁻¹ s⁻¹]
POLK (Homo sapiens, UniProt Q9UBT6) | Nc1ccn([C@H]2C[C@H](O)[C@@H](COP(=O)(O)OP(=O)(O)OP(=O)(O)O)O2)c(=O)n1 | pH 7.5, 23 °C, MgCl2 5 mM, added: G template | 19000
